Results gathered from unrelated publications.
A part holds a random share of what one study measured.

Block 1
Target: Centromere-binding protein 1, full length, His-tagged (CBF1, Saccharomyces cerevisiae, UniProt P17106, residues 1-351)
UniProt P17106, sequence (whole entry, looked up): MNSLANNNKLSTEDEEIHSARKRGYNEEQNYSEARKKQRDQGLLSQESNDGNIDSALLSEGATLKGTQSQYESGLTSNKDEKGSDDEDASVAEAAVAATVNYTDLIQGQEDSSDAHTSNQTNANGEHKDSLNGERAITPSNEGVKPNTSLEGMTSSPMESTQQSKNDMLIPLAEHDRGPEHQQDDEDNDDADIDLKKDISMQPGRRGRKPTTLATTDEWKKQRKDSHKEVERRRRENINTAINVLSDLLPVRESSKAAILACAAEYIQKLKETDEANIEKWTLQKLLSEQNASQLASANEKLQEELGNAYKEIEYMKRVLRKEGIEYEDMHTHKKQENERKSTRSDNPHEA
Method: competition protein-binding microarray
Molecule type: double-stranded DNA, one strand shown
Matrix: in vitro
Tested at: 2 µM
Notes: whole 60-bp probe, lowest competitor level
Together with: Pho4 competitor, 0.05 µM
Reading: higher = stronger binding
With `CGGGGTTAAGTTTTTCACGTGTAATGCTTGCAGCAGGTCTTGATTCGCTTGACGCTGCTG` the fluorescence intensity was 603 a.u.
With `TCTTCCAGCCTGGGTCCCGTGCGGAAGGGCGGCGGAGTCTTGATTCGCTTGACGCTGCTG` the fluorescence intensity was 143 a.u.
With `CAGTGGAATCTTCATCACATGCTCGAACCGGCTTGAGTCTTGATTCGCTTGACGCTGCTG` the fluorescence intensity was 667 a.u.
The fluorescence intensity of `AGACTGTATTTTTGTCACCTGTCGCGGCAACTTACTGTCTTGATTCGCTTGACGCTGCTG` is reported as 189 a.u.
The fluorescence intensity of `GACTTGACAGAGTGGCACGAGGCTCTGCCCATCTGTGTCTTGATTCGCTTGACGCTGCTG` is reported as 81.5 a.u.
`CTAACGAAGGTTTGGGGCGTGGGTGACAAGCCAAGTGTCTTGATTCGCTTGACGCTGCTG` gave a fluorescence intensity of 68.1 a.u.

Block 2
Target: Prothrombin, mature alpha-thrombin (F2, Homo sapiens, UniProt P00734)
Method: aptamer microarray, sandwich
Molecule type: DNA with 2'F-ANA
Matrix: in vitro
Tested at: 200 nM
Notes: whole 15-mer aptamer, many near background
Together with: Cy3 exosite-II aptamer, 400 nM
Reading: higher = stronger binding
Oligonucleotide: GGTTGGTGTGGTTGG
`2'F-ANA at 2 3 5 6 8 9 13 14`: “mean fluorescence intensity” 125 a.u.
Under “mean fluorescence intensity”, `2'F-ANA at 1 2 3 4 6 7 8 9 12 13 14 15` is recorded as 128 a.u.
`2'F-ANA at 2 3 6 7 11 14`: “mean fluorescence intensity” 350 a.u.
For `2'F-ANA at 4 5 7 11 13 14`, “mean fluorescence intensity” read 45 a.u.
`2'F-ANA at 1 3 4 5 6 7 11 12 13 14` — result for “mean fluorescence intensity”: 46.6 a.u.
For `2'F-ANA at 2 4 5 11 12 13 14`, “mean fluorescence intensity” read 47.6 a.u.
Under “mean fluorescence intensity”, `2'F-ANA at 2 3 4 5 6 7 8 9 10 11 13 14 15` is recorded as 50.9 a.u.

Block 3
Target: Fragile X messenger ribonucleoprotein 1, C-terminal low-complexity region (Fmr1, Mus musculus, UniProt P35922)
Method: RNA Bind-n-Seq
Molecule type: RNA
Matrix: in vitro
Tested at: 200 nM
Notes: whole 134-nt RNA, ends assumed
Together with: 150 mM LiCl
Relative to: input library
Reading: higher = stronger binding
Library: 7-deaza-guanosine replaces G
With `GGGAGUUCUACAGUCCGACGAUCCAAGUCCUGUGCUACACAUCGUAUGUACCGAAUCGGAAAAAAAGGUGGAAAAAGGAAAGUAUUAUGUUACGCCGUUCGGAUCUGCACUUCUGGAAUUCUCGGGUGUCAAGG` the log2 enrichment was -1.08.
With `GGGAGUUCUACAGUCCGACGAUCGCAGGAAGUAAAAACAAAUGGAAAUGCUUCGGAUAGUGGAAGGGGUGGGGGUUGCUAAGGAAAGGGUGGGAUGGGAGUGGGUAAAGAGUUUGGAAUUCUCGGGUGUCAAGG` the log2 enrichment was 1.93.
`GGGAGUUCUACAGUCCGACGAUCUCCCUAUUCCAGUCAUACACGUGGACCUAACUGCACCAGUAGCUUUUCUGAGAAUACUUGCUGAAAAGGAAGUUUUCUGGAAUGGGUAAGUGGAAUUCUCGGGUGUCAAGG` gave a log2 enrichment of -0.969.
For `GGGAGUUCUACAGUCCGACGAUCUGUGCUACACAUCGUAUGUACCGAAUCGGGGCCCCCCCGGGGCCCCCCCGGCCCCCCCGGGGAAAGUAUUAUGUUACGCCGUUCGGAUCUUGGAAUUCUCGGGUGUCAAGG`, the log2 enrichment was -1.54.
With `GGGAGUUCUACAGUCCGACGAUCUGUUUUAAGGUUGCCAACUUUGCAACAAUGGAAGAUGAAGAAGAGCUAGAAGAGCGUCCUCACAAGGACUGGGAUGAGAUCAUUCCAGAGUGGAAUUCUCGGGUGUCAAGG` the log2 enrichment was -2.4.
`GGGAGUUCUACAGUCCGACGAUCACCAUGCAGGUGGGCAUCUUUGGGAAGUGGGGCAAGGGGGGGAUAGGGAGGGGGGUAACACUUUGGGAACAGGCGGUCCCAGGUCGUUUCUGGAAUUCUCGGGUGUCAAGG` gave a log2 enrichment of 1.4.
`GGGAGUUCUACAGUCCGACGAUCUCCUGUGCUACACAUCGUAUGUACCGAAUCGGGCCCCCCGGGCCCCCCGGGGCCCCCCGGAAAGUAUUAUGUUACGCCGUUCGGAUCUGCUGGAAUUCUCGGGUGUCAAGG` has a log2 enrichment of -1.98.

Single results of other studies
With `PhoQ, residues 284 288 289 292 302 303 NLALSC` the fold induction was 3.43 (PhoP, residues 12 14 15 18 19 LWHSL (Escherichia coli, UniProt P23836); Sort-seq, measured: YFP reporter; E. coli; PhoQ-PhoP variant library, together with: 10 µM Mg2+; relative to: high Mg2+ state, higher = stronger signaling).
